Results pooled from the literature.
Lines come from different studies, so protocols differ. ± gives the spread as reported.
PRMT5: Protein arginine N-methyltransferase 5 (PRMT5, Homo sapiens, UniProt O14744)
Chain of UniProt Q8NER1 (whole entry, unmodified, looked up): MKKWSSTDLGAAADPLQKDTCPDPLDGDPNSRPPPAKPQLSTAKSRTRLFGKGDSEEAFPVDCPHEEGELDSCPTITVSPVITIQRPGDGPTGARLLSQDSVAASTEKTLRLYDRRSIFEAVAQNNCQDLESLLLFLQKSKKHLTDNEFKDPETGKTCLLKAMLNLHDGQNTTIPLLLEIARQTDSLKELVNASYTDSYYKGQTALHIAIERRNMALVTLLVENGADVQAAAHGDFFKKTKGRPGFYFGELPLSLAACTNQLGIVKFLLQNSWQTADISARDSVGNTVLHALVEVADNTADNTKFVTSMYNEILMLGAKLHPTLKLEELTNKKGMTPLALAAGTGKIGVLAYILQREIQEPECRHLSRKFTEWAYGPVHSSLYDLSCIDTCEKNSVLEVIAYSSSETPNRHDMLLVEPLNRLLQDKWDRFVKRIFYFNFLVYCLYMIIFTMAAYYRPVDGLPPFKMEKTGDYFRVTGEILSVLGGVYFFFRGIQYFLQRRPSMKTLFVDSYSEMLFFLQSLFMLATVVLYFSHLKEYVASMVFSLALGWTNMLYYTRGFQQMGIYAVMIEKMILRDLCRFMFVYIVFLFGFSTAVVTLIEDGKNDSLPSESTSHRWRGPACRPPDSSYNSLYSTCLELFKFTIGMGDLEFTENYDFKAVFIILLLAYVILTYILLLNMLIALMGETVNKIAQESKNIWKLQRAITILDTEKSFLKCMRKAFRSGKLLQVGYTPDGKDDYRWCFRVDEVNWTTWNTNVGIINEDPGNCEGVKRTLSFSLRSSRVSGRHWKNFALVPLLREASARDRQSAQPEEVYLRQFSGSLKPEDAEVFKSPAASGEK
Chain of UniProt O14744 (whole entry, looked up): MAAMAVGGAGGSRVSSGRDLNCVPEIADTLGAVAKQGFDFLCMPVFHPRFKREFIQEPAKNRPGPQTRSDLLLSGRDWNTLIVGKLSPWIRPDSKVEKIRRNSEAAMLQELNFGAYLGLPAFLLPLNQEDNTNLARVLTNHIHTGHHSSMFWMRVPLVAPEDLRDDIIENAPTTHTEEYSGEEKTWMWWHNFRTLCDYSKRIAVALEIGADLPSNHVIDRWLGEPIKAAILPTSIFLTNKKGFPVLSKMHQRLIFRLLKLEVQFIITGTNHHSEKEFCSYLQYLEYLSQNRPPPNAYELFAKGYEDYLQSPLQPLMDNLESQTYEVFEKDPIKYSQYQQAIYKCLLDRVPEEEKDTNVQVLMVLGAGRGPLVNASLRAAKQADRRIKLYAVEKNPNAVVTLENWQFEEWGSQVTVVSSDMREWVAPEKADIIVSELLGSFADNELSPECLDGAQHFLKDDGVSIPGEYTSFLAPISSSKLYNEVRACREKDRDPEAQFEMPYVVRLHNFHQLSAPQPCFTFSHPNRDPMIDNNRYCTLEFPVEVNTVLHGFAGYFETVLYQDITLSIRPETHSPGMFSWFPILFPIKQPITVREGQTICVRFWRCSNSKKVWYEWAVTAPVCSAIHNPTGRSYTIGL
Chain of UniProt Q9UBL9 (whole entry, looked up): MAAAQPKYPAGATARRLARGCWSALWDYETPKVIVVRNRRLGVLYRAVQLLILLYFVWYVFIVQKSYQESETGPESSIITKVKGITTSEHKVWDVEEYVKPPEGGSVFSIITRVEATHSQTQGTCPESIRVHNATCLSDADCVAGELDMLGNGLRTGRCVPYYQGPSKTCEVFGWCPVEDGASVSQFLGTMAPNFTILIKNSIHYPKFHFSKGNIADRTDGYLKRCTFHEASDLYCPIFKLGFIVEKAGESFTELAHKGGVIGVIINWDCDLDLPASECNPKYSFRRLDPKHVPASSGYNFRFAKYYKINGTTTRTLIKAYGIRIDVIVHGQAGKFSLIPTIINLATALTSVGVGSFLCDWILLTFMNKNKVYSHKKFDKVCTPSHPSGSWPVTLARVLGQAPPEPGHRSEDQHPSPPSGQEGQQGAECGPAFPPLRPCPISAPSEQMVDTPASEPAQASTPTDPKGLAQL
Chain of UniProt Q96D96 (whole entry, unmodified, looked up): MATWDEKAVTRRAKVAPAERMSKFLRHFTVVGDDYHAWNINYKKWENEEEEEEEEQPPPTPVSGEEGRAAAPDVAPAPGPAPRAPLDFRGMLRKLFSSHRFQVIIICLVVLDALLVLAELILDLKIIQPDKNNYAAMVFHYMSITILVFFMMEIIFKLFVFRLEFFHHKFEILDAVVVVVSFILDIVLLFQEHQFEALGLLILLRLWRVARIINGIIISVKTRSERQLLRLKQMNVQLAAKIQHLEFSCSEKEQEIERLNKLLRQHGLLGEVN
Chain of UniProt Q96SW2 (whole entry, looked up): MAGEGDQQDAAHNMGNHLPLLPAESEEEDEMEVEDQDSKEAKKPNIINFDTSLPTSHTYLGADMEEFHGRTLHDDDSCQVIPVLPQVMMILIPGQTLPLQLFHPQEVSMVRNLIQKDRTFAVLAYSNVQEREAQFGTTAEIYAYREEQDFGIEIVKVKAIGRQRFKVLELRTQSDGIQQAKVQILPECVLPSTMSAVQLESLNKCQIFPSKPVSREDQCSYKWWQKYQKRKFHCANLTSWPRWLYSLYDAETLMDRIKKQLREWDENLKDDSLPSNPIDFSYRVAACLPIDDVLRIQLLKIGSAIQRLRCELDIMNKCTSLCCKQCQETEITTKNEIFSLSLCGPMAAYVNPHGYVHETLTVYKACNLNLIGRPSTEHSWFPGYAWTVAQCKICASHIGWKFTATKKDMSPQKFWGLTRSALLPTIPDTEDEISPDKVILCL
Chain of UniProt P35348 (whole entry, looked up): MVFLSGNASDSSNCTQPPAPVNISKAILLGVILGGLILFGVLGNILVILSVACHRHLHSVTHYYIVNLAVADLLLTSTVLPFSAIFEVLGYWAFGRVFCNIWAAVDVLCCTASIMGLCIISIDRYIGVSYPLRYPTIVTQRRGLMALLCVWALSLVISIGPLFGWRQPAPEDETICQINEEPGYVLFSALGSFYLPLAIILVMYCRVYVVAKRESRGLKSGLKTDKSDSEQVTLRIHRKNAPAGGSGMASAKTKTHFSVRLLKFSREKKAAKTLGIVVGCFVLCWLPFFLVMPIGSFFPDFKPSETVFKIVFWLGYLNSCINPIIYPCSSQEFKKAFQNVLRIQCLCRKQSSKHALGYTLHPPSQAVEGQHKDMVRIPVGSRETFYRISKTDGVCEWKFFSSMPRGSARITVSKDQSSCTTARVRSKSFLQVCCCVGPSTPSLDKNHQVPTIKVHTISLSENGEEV
Chain of UniProt P48729 (whole entry, looked up): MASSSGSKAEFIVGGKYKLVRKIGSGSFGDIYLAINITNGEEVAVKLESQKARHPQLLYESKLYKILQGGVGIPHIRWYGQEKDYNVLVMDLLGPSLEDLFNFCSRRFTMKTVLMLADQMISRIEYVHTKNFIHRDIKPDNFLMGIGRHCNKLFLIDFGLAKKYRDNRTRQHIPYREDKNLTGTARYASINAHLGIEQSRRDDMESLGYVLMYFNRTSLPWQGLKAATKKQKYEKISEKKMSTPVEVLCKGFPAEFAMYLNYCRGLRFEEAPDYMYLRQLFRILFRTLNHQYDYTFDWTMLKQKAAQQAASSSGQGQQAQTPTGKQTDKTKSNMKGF
Chain of UniProt Q704Y3 (whole entry, looked up): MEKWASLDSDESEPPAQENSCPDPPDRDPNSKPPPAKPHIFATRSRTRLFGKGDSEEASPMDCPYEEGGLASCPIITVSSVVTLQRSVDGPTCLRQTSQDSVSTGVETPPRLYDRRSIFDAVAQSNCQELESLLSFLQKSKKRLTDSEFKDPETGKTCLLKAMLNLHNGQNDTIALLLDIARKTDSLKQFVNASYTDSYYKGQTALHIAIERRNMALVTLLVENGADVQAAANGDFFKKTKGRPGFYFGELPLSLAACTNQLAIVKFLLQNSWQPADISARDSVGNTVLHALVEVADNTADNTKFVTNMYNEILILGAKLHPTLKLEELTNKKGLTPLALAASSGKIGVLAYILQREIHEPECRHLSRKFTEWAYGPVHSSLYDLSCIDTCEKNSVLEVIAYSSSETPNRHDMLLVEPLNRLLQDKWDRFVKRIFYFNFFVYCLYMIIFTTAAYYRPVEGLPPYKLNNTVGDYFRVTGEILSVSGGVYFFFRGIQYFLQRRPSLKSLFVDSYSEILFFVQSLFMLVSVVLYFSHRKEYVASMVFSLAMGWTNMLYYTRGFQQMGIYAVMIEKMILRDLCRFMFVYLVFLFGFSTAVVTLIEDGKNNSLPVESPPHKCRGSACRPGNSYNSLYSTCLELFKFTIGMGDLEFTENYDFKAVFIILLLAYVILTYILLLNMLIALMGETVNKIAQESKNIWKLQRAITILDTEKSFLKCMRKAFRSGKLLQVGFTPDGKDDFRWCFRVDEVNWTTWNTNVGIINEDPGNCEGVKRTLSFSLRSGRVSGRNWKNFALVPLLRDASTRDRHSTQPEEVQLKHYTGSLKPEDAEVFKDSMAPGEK
Chain of UniProt P41595 (whole entry, looked up): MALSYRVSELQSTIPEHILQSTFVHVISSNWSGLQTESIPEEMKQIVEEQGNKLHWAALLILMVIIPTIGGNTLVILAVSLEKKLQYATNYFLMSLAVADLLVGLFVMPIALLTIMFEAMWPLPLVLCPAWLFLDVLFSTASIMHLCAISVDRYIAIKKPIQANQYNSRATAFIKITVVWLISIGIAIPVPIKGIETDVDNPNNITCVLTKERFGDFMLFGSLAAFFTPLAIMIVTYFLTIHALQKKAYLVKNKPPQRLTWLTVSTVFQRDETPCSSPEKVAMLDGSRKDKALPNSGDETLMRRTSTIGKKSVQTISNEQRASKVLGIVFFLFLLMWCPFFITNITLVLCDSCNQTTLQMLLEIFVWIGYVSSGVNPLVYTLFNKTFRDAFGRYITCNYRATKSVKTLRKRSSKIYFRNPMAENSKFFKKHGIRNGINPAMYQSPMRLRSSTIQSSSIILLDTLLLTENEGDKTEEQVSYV

Compound	tested on	test	test system	setting	scale	endpoint	result
CC1(C)C(/C=C/C=C2/N(CCCc3ccccc3)c3ccc(Cl)cc3C2(C)C)=[N+](CCCc2ccccc2)c2ccc(Cl)cc21.[Br-]	PRMT5	inhibitor, scintillation proximity		added: biotinylated histone H4 peptide substrate		Hill coefficient	15
CCCCCCCC/C=C\CCCCCCCC(=O)NCCc1ccc(O)c(O)c1	Trpv1 (Mus musculus, UniProt Q704Y3)	ion current, agonist, whole-cell patch clamp	HEK293			Hill coefficient	2.67 ± 0.26
C(/C=C/c1sc2c3ccccc3ccc2[n+]1CCCc1ccccc1)=C1/Sc2c(ccc3ccccc23)N1CCCc1ccccc1.[I-]	PRMT5	inhibitor, scintillation proximity		added: biotinylated histone H4 peptide substrate		Hill coefficient	1.1
CCN1/C(=C/C(C)=O)Sc2ccc(F)cc21			cynomolgus monkey	oral, 10 mg/kg, 1 h post-dose		mean blood pressure	86 ± 5 mmHg
N#Cc1ccc2[nH]cc(CCCCN3CCN(c4ccc5oc(C(N)=O)cc5c4)CC3)c2c1	SLC6A4 (Homo sapiens, UniProt P31645)	serotonin uptake, inhibitor	COS-7 expressing SLC6A4	60 min preincubation, added: [3H]5-HT		Hill coefficient	1.66 ± 0.24
COc1cccc(OC)c1OCCNCC1COc2ccccc2O1 (stereo not shown)	ADRA1A (Homo sapiens, UniProt P35348)	binding, antagonist, radioligand binding				Hill coefficient	1.7
CC(C)C[C@H](NC(=O)C[C@H](O)[C@H](CC(C)C)NC(=O)[C@H](Cc1c[nH]cn1)NC(=O)CNC(=O)[C@@H](NC(=O)[C@H](C)NC(=O)[C@H](Cc1c[nH]c2ccccc12)NC(=O)[C@H](CCC(N)=O)NC(=O)[C@@H](Cc1ccccc1)NC(=O)COCCOCCNC(=O)CCC(C(=O)O)N1CCN(CC(=O)O)CCN(CC(=O)O)CCN(CC(=O)O)CC1)C(C)C)C(N)=O (stereo partly shown) [lutetium-177 labelled]			BALB/c nu/nu mice, bladder	intravenous, 100 pmol, 1 h, added: PA 300 µg		tissue uptake	63 ± 44 %ID/g
CCCC[C@H](NC(=O)[C@H](C)c1c(C)[nH]c2ccc(O)cc12)c1ncc(-c2cc3ccccc3nc2OC)[nH]1	HTR2B (Homo sapiens, UniProt P41595)					Hill coefficient	0.6
CCOc1c([C@H](C)n2nc(C)c3c(N)ncnc32)cc(Cl)c(F)c1[C@@H]1CNC(=O)C1			human, B-cell malignancies, plasma	oral, 20 mg, day 15, geometric mean		AUC(0-tau)	11.9 µM·h
Cn1cc(-c2ccc(-c3cncc(Cl)c3N3CCC4(CCNC4=O)CC3)cc2)cn1	COLO 205	gene expression, microarray, item: ARHGEF39 mRNA		concentration not given, 2 h	reference: untreated cells	log2 fold change	-2.46
Nc1ncnc2c1ncn2[C@@H]1O[C@H](COP(=O)(O)OP(=O)(O)OP(=O)(O)O)[C@@H](O)[C@H]1O	P2X purinoceptor 2 (P2RX2, Homo sapiens, UniProt Q9UBL9)	channel activation, agonist	transfected HEK293 cells	divalent-free solution, added: 10 mM EDTA		Hill coefficient	1.3 ± 0.3
[Cl-].[Cl-].[Zn+2]	HVCN1 (Homo sapiens, UniProt Q96D96, E119H)	whole-cell voltage clamp		100 mV, open probability 0.55		Hill coefficient	0.7
Nc1c(N=Nc2ccc(S(=O)(=O)CCOS(=O)(=O)[O-])cc2)c(S(=O)(=O)[O-])cc2cc(S(=O)(=O)[O-])c(N=Nc3ccc(S(=O)(=O)CCOS(=O)(=O)[O-])cc3)c(O)c12.[Na+].[Na+].[Na+].[Na+]	alternative ancestral DyP peroxidase	peroxidase activity, substrate				Hill coefficient	2
NCc1cc2c(cc1F)C(=O)N(C1CCC(=O)NC1=O)C2 (stereo not shown)	Cereblon/Casein kinase I alpha (CSNK1A1/CRBN, Homo sapiens, UniProt P48729+Q96SW2)	degrader, Western blot	Hep3B	24 h		DC50	35 nM
O=S(=O)([O-])[O-].[Mn+2]	alternative ancestral DyP peroxidase	peroxidase activity, substrate				Hill coefficient	0.6
COc1cc(CNC(=O)CCCC/C=C/C(C)C)ccc1O	TRPV1 (Homo sapiens, UniProt Q8NER1, G492W)	agonist, outside-out patch clamp		G492W mutant		Hill coefficient	1.1

Excerpt of the above:
Compound	tested on	test	test system	setting	scale	endpoint	result
CCCC[C@H](NC(=O)[C@H](C)c1c(C)[nH]c2ccc(O)cc12)c1ncc(-c2cc3ccccc3nc2OC)[nH]1	HTR2B (Homo sapiens, UniProt P41595)					Hill coefficient	0.6
